{"data": "Assay results gathered from unrelated publications", "note": "A part holds a random share of what one study measured.", "chain of UniProt Q13554 (whole entry, looked up)": "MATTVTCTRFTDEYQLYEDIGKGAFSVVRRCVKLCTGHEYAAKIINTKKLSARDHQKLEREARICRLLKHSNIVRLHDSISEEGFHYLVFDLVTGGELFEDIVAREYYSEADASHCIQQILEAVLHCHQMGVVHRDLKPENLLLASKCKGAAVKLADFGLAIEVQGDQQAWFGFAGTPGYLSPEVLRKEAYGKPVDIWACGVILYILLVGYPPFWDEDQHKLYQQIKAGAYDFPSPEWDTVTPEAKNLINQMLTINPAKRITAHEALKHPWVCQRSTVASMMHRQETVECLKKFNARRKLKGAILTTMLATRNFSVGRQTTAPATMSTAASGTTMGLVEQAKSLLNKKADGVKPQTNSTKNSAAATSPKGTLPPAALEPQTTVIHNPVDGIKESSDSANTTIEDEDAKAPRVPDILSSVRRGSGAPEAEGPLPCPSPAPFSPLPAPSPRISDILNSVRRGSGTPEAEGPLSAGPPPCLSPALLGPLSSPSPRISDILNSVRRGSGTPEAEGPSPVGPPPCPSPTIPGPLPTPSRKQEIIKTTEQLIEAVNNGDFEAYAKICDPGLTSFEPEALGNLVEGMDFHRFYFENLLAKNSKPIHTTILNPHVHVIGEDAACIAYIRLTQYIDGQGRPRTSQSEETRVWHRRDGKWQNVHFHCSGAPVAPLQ", "chain of UniProt P23458 (whole entry, looked up)": "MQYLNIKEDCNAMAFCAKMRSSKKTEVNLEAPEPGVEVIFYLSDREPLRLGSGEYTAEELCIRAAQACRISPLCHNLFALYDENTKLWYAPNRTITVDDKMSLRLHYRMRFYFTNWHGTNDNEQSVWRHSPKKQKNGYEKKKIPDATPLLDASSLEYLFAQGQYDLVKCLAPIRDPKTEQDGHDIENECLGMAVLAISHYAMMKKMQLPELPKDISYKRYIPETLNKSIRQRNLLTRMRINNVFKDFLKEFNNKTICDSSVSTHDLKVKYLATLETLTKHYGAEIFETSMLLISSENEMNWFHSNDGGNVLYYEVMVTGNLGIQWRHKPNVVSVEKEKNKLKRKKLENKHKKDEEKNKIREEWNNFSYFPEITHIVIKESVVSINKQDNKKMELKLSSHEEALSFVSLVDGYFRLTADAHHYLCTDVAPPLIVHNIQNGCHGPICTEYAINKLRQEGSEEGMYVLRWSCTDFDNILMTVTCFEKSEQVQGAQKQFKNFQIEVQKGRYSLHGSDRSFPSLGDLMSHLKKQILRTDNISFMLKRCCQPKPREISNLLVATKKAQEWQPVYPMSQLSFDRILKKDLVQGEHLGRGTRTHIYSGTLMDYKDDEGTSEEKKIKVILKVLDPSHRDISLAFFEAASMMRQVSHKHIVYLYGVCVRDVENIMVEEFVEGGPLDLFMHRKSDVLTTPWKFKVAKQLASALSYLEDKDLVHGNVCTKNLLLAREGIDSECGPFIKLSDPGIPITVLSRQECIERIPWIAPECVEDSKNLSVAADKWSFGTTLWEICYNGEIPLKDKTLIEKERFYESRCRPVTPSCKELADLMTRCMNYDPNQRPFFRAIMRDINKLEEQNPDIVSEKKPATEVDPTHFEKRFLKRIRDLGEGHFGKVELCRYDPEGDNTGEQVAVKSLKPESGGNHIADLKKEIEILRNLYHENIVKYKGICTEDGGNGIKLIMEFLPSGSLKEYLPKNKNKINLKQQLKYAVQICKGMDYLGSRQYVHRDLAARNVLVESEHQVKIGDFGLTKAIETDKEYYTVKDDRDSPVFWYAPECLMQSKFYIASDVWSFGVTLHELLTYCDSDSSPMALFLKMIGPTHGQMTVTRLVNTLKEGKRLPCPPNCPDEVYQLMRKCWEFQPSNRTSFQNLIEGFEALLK", "chain of UniProt Q6P2M8 (whole entry, looked up)": "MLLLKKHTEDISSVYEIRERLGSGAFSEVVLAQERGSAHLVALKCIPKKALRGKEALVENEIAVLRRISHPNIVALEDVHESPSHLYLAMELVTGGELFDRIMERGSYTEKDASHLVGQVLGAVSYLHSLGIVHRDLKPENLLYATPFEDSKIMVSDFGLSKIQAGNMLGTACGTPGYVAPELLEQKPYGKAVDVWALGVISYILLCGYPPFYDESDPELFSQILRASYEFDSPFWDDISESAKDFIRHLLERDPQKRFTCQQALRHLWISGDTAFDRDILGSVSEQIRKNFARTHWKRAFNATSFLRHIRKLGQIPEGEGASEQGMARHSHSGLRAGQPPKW", "chain of UniProt P06493 (whole entry, looked up)": "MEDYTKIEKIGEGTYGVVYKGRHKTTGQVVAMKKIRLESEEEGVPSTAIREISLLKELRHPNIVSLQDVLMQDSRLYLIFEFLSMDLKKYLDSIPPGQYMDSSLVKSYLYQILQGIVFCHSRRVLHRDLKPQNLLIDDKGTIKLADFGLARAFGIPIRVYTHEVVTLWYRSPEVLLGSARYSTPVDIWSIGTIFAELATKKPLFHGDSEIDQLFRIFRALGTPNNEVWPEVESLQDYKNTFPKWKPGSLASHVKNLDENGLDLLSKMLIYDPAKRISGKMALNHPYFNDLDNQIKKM", "chain of UniProt Q9H3Y6 (whole entry, looked up)": "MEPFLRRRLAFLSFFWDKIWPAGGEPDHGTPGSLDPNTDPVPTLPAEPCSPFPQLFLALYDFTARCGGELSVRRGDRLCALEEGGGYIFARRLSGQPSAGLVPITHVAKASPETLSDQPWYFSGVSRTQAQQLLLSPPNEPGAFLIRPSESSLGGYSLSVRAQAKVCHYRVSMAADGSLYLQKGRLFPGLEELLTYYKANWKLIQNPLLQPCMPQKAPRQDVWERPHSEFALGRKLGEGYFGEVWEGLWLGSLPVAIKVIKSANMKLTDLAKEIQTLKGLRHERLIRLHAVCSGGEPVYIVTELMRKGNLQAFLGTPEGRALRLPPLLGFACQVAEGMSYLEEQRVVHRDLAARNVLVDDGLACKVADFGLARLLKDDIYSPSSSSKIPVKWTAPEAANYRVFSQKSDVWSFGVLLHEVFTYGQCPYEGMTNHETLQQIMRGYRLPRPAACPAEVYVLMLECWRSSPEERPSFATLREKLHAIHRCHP", "chain of UniProt P16591 (whole entry, looked up)": "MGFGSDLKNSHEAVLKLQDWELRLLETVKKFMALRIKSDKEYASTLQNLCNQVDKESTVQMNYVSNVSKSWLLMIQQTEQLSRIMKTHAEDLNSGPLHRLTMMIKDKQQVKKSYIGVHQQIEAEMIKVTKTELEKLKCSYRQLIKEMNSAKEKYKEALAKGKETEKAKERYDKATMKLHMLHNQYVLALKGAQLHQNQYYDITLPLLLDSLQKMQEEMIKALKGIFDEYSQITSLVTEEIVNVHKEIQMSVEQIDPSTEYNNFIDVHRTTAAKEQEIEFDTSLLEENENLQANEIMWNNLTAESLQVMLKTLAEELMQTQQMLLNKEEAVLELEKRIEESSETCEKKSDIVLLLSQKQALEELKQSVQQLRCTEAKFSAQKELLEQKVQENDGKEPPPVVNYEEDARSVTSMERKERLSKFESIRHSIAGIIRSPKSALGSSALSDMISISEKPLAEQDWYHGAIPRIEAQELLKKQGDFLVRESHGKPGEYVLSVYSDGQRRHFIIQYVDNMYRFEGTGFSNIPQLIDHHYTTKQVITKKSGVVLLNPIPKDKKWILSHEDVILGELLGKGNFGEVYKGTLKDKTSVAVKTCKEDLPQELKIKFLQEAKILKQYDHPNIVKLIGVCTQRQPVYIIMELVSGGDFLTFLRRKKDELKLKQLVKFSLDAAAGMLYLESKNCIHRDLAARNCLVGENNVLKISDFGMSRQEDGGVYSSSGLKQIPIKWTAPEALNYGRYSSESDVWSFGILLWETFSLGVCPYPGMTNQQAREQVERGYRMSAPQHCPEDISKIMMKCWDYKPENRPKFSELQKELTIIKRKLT", "chain of UniProt Q96RR4 (whole entry, looked up)": "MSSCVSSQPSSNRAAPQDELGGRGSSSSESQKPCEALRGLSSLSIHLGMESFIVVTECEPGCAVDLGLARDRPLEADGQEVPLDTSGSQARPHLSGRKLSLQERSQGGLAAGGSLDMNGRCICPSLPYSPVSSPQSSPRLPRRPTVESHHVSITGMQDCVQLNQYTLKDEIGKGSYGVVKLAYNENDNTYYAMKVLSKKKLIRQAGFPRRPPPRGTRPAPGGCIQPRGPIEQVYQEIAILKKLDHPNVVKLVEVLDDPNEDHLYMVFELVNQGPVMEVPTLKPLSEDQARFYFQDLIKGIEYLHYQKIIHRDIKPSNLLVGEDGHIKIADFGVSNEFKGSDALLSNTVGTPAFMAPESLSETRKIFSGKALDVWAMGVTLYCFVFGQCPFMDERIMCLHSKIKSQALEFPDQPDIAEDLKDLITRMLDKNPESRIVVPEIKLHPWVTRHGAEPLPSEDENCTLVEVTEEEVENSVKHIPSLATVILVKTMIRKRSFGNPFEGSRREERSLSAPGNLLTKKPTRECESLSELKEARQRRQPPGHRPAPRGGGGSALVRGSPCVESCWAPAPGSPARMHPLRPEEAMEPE", "chain of UniProt Q9UPZ9 (whole entry, looked up)": "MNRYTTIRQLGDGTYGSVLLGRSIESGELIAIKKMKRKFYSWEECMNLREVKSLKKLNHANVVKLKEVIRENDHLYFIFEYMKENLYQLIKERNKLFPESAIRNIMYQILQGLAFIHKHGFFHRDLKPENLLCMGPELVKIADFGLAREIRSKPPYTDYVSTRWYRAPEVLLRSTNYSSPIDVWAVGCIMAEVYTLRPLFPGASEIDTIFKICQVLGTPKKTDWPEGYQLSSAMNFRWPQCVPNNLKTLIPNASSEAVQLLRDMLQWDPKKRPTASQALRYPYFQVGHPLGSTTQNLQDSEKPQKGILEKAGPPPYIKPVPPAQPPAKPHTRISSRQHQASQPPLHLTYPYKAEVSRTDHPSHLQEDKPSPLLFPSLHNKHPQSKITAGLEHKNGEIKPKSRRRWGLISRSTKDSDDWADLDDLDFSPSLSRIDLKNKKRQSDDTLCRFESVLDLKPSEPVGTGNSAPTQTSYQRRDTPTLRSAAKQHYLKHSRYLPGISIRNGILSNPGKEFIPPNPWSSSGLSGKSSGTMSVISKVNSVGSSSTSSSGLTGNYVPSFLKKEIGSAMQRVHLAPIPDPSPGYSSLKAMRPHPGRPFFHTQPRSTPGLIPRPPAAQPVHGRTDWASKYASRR"}
{"data": "Set 1", "cell line": "HaCaT", "concentration": "100 µM", "time": "60 h"}
{"SMILES": "C[C@H](CCC(=O)NCCS(=O)(=O)O)[C@H]1CC[C@H]2[C@@H]3[C@@H](O)C[C@@H]4C[C@H](O)CC[C@]4(C)[C@H]3CC[C@]12C", "viability [%]": 119}
{"SMILES": "Cc1ccc(=O)n(-c2ccccc2)c1", "viability [%]": 140}
{"SMILES": "CC(C)(C)NCC(O)COc1cccc2c1CCC(=O)N2 (stereo not drawn)", "viability [%]": 145}
{"SMILES": "c1ccc(CC2=NCCN2)cc1", "viability [%]": 124}
{"SMILES": "CN(C)c1ccc(C(=C2C=CC(=[N+](C)C)C=C2)c2ccc(N(C)C)cc2)cc1", "viability [%]": 21.6}
{"SMILES": "C/C(O)=C(\\C#N)C(=O)Nc1ccc(C(F)(F)F)cc1", "viability [%]": 62.4}
{"SMILES": "Cc1c(Nc2ncccc2C(=O)O)cccc1C(F)(F)F", "viability [%]": 117}
{"SMILES": "Cc1c(C(=O)Nc2ccc(N3C[C@@H](C)O[C@@H](C)C3)nc2)cccc1-c1ccc(OC(F)(F)F)cc1", "viability [%]": 17.5}
{"SMILES": "C[N+](C)(C)CC(=O)O", "viability [%]": 140}
{"SMILES": "Cc1ncc([N+](=O)[O-])n1CC(C)O (stereo not drawn)", "viability [%]": 141}
{"SMILES": "CC(C[N+](C)(C)C)OC(N)=O (stereo not drawn)", "viability [%]": 136}
{"data": "Set 2", "Structure (SMILES)": "COCCOc1nc(-c2ccc(Cl)nc2)nc2c1CN(C(=O)c1ncn3ccccc13)CC2", "effect on": "cell-free assay", "method": "competition with immobilised ligand", "concentration": "0.1 µM"}
{"target": "Myosin-IIIa (MYO3A, Homo sapiens, UniProt Q8NEV4)", "remaining binding [%]": 100}
{"target": "MAP kinase-interacting serine/threonine-protein kinase 1 (MKNK1, Homo sapiens, UniProt Q9BUB5)", "remaining binding [%]": 77}
{"target": "Serine/threonine-protein kinase ICK (CILK1, Homo sapiens, UniProt Q9UPZ9)", "remaining binding [%]": 100}
{"target": "Discoidin domain-containing receptor 2 (DDR2, Homo sapiens, UniProt Q16832)", "remaining binding [%]": 100}
{"target": "Calcium/calmodulin-dependent protein kinase kinase 2 (CAMKK2, Homo sapiens, UniProt Q96RR4)", "remaining binding [%]": 100}
{"target": "Calcium/calmodulin-dependent protein kinase type II subunit beta (CAMK2B, Homo sapiens, UniProt Q13554)", "remaining binding [%]": 100}
{"target": "Serine/threonine-protein kinase 17B (STK17B, Homo sapiens, UniProt O94768)", "remaining binding [%]": 62}
{"target": "Vascular endothelial growth factor receptor 3 (FLT4, Homo sapiens, UniProt P35916)", "remaining binding [%]": 88}
{"target": "Beta-adrenergic receptor kinase 1 (GRK2, Homo sapiens, UniProt P25098)", "remaining binding [%]": 100}
{"target": "Serine/threonine-protein kinase 38 (STK38, Homo sapiens, UniProt Q15208)", "remaining binding [%]": 100}
{"target": "Homeodomain-interacting protein kinase 3 (HIPK3, Homo sapiens, UniProt Q9H422)", "remaining binding [%]": 100}
{"target": "Dual specificity tyrosine-phosphorylation-regulated kinase 1B (DYRK1B, Homo sapiens, UniProt Q9Y463)", "remaining binding [%]": 83}
{"target": "Tyrosine-protein kinase JAK1, JH1 (JAK1, Homo sapiens, UniProt P23458)", "remaining binding [%]": 100}
{"target": "Mitogen-activated protein kinase 6 (MAPK6, Homo sapiens, UniProt Q16659)", "remaining binding [%]": 100}
{"target": "Tyrosine-protein kinase Fer (FER, Homo sapiens, UniProt P16591)", "remaining binding [%]": 100}
{"target": "Ephrin type-A receptor 8 (EPHA8, Homo sapiens, UniProt P29322)", "remaining binding [%]": 100}
{"target": "Myosin-IIIb (MYO3B, Homo sapiens, UniProt Q8WXR4)", "remaining binding [%]": 67}
{"target": "Calcium/calmodulin-dependent protein kinase type 1B (PNCK, Homo sapiens, UniProt Q6P2M8)", "remaining binding [%]": 100}
{"data": "Set 3", "SMILES": "CC(=O)O/N=C1/C(c2c(O)[nH]c3cc(Br)ccc23)=Nc2ccccc21", "effect on": "enzyme activity", "action": "inhibitor", "concentration": "0.5 µM", "reference": "control"}
{"target": "Tyrosine-protein kinase receptor UFO (AXL, Homo sapiens, UniProt P30530)", "remaining activity": "88%"}
{"target": "Serine/threonine-protein kinase 17A (STK17A, Homo sapiens, UniProt Q9UEE5)", "remaining activity": "72.7%"}
{"target": "Tyrosine-protein kinase Blk (BLK, Homo sapiens, UniProt P51451)", "remaining activity": "25.6%"}
{"target": "Homeodomain-interacting protein kinase 2 (HIPK2, Homo sapiens, UniProt Q9H2X6)", "remaining activity": "99.1%"}
{"target": "Tyrosine-protein kinase ABL1 (ABL1, Homo sapiens, UniProt P00519)", "remaining activity": "43.1%"}
{"target": "Phosphorylase b kinase gamma catalytic chain, skeletal muscle/heart isoform (PHKG1, Homo sapiens, UniProt Q16816)", "remaining activity": "67.7%"}
{"target": "Mitogen-activated protein kinase kinase kinase kinase 4 (MAP4K4, Homo sapiens, UniProt O95819)", "remaining activity": "30.2%"}
{"target": "Ephrin type-A receptor 4 (EPHA4, Homo sapiens, UniProt P54764)", "remaining activity": "87.6%"}
{"target": "Calcium/calmodulin-dependent protein kinase type II subunit beta (CAMK2B, Homo sapiens, UniProt Q13554)", "remaining activity": "91.5%"}
{"target": "Ephrin type-B receptor 1 (EPHB1, Homo sapiens, UniProt P54762)", "remaining activity": "99.9%"}
{"target": "MAP kinase-activated protein kinase 3 (MAPKAPK3, Homo sapiens, UniProt Q16644)", "remaining activity": "105%"}
{"target": "Serine/threonine-protein kinase 16 (STK16, Homo sapiens, UniProt O75716)", "remaining activity": "76.5%"}
{"target": "Ribosomal protein S6 kinase alpha-6 (RPS6KA6, Homo sapiens, UniProt Q9UK32)", "remaining activity": "70%"}
{"target": "3-phosphoinositide-dependent protein kinase 1 (PDPK1, Homo sapiens, UniProt O15530)", "remaining activity": "88.2%"}
{"target": "Serine/threonine-protein kinase WNK3 (WNK3, Homo sapiens, UniProt Q9BYP7)", "remaining activity": "93%"}
{"target": "Cyclin-dependent kinase 6, with cyclin D3 (CDK6, Homo sapiens, UniProt Q00534)", "remaining activity": "40.9%"}
{"target": "Ephrin type-B receptor 4 (EPHB4, Homo sapiens, UniProt P54760)", "remaining activity": "92.2%"}
{"target": "Tyrosine-protein kinase Srms (SRMS, Homo sapiens, UniProt Q9H3Y6)", "remaining activity": "98%"}
{"target": "Cyclin-dependent kinase 1, with cyclin B (CDK1, Homo sapiens, UniProt P06493)", "remaining activity": "79.3%"}
{"target": "Testis-specific serine/threonine-protein kinase 2 (TSSK2, Homo sapiens, UniProt Q96PF2)", "remaining activity": "101%"}
{"target": "Dual specificity tyrosine-phosphorylation-regulated kinase 3 (DYRK3, Homo sapiens, UniProt O43781)", "remaining activity": "91.3%"}
{"target": "Homeodomain-interacting protein kinase 4 (HIPK4, Homo sapiens, UniProt Q8NE63)", "remaining activity": "95.5%"}
{"data": "Set 4", "matrix": "1,9-decadiene/PBS", "pH": "7.4"}
{"Structure (SMILES)": "CC(C)C[C@@H]1NC(=O)[C@H](C)NC(=O)[C@@H](CC(C)C)NC(=O)[C@H](C)NC(=O)[C@H](CC(C)C)NC(=O)[C@H](CC(C)C)NC(=O)[C@@H](C(C)C)NC1=O", "logD": -0.169}
{"Structure (SMILES)": "CC(C)C[C@@H]1NC(=O)[C@H](C)NC(=O)[C@@H](CC(C)C)NC(=O)[C@H](CC(C)C)NC(=O)[C@@H](CCC(=O)N2CCCC2)NC(=O)[C@H](CC(C)C)NC(=O)[C@@H](CC(C)C)NC1=O", "logD": -0.154}
{"Structure (SMILES)": "CC(C)C[C@@H]1NC(=O)[C@H](CC(C)C)NC(=O)[C@@H](C(C)C)NC(=O)[C@H](C)NC(=O)[C@H](C(C)C)NC(=O)[C@H](C)NC(=O)[C@H](C)NC1=O", "logD": -2.1}
{"Structure (SMILES)": "CC(C)C[C@@H]1NC(=O)[C@H](CC(C)C)NC(=O)[C@@H](CC(C)C)NC(=O)[C@H](CC(C)C)NC(=O)[C@H](C(C)C)NC(=O)[C@H](C)NC(=O)[C@H](C)NC1=O", "logD": 0.0814}
{"Structure (SMILES)": "CC(C)C[C@@H]1NC(=O)[C@H](C(C)C)NC(=O)[C@H](Cc2cscn2)NC(=O)[C@H](CC(C)C)NC(=O)[C@@H](CCC(=O)N2CCCC2)NC(=O)[C@H](CC(C)C)NC(=O)[C@@H](CC(C)C)NC1=O", "logD": -0.537}
{"Structure (SMILES)": "CC(C)C[C@@H]1NC(=O)[C@@H](C)NC(=O)[C@H](C)NC(=O)[C@@H](CC(C)C)NC(=O)[C@H](C(C)C)NC(=O)[C@H](CC(C)C)NC(=O)[C@@H](CC(C)C)NC1=O", "logD": -0.745}
{"Structure (SMILES)": "CC(C)C[C@@H]1NC(=O)[C@H](CC(C)C)NC(=O)[C@@H](CC(C)C)NC(=O)[C@@H](CC(C)C)NC(=O)[C@@H](CCC(=O)N2CCCC2)NC(=O)[C@H](CC(C)C)NC(=O)[C@@H](CC(C)C)NC1=O", "logD": 1.16}
{"Structure (SMILES)": "CC(C)C[C@@H]1NC(=O)[C@H](CC(C)C)NC(=O)[C@@H](CC(C)C)NC(=O)[C@@H](C(C)C)NC(=O)[C@H](C(C)C)NC(=O)[C@H](CC(C)C)NC(=O)[C@@H](CC(C)C)NC1=O", "logD": 2.75}
{"Structure (SMILES)": "CC(C)C[C@@H]1NC(=O)[C@@H](C)NC(=O)[C@@H](CC(C)C)NC(=O)[C@@H](C(C)C)NC(=O)[C@H](C)NC(=O)[C@H](CC(C)C)NC(=O)[C@@H](CC(C)C)NC1=O", "logD": -0.101}
{"Structure (SMILES)": "CC(C)C[C@@H]1NC(=O)[C@H](C)NC(=O)[C@@H](CC(C)C)NC(=O)[C@H](CC(C)C)NC(=O)[C@H](C(C)C)NC(=O)[C@H](CC(C)C)NC(=O)[C@@H](CC(C)C)NC1=O", "logD": 1.18}
{"Structure (SMILES)": "CC(C)C[C@@H]1NC(=O)[C@H](C)NC(=O)[C@H](C)NC(=O)[C@@H](CC(C)C)NC(=O)[C@H](C)NC(=O)[C@H](CC(C)C)NC(=O)[C@H](CC(C)C)NC1=O", "logD": -1.28}
{"Structure (SMILES)": "CC(C)C[C@@H]1NC(=O)[C@@H](C)NC(=O)[C@H](CCC(=O)N2CCCC2)NC(=O)[C@H](C)NC(=O)[C@H](C(C)C)NC(=O)[C@H](CC(C)C)NC(=O)[C@@H](CC(C)C)NC1=O", "logD": -1.78}
{"note": "Some of these lines once more (set 3):"}
{"target": "Tyrosine-protein kinase ABL1 (ABL1, Homo sapiens, UniProt P00519)", "remaining activity": "43.1%"}
{"target": "Homeodomain-interacting protein kinase 4 (HIPK4, Homo sapiens, UniProt Q8NE63)", "remaining activity": "95.5%"}
{"target": "Calcium/calmodulin-dependent protein kinase type II subunit beta (CAMK2B, Homo sapiens, UniProt Q13554)", "remaining activity": "91.5%"}
{"target": "MAP kinase-activated protein kinase 3 (MAPKAPK3, Homo sapiens, UniProt Q16644)", "remaining activity": "105%"}
{"target": "Ribosomal protein S6 kinase alpha-6 (RPS6KA6, Homo sapiens, UniProt Q9UK32)", "remaining activity": "70%"}
